# Assay results gathered from unrelated publications.
# Every numbered part comes from another study and shows a few of its results, in no order. Positions count from the first letter of the parent shown.
# Sequence of UniProt Q9XED8 (whole entry, looked up): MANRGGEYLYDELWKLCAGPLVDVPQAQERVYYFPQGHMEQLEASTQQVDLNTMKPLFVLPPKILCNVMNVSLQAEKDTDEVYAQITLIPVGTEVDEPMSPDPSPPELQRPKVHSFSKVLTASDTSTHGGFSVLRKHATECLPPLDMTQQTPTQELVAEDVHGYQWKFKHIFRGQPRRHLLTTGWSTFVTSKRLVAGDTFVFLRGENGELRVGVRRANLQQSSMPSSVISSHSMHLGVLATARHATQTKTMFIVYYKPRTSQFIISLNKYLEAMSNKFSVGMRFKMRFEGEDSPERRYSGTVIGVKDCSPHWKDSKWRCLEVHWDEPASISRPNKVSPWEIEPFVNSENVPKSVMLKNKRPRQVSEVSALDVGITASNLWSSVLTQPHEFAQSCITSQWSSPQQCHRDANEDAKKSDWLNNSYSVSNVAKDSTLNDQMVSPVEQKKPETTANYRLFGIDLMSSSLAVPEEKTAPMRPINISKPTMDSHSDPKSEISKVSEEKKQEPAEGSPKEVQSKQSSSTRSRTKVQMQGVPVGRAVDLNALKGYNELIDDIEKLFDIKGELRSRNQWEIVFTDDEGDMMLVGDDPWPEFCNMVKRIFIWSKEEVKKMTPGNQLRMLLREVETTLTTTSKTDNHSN
# Sequence of UniProt Q8LAL2 (whole entry, looked up): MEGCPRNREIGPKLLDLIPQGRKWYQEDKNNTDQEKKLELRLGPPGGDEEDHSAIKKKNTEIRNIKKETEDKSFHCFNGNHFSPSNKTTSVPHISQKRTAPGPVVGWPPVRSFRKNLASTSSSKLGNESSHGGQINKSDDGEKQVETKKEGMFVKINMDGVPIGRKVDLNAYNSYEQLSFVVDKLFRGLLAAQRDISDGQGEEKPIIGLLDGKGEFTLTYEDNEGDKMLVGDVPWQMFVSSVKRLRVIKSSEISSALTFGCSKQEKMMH
# Sequence of UniProt Q84WU6 (whole entry, looked up): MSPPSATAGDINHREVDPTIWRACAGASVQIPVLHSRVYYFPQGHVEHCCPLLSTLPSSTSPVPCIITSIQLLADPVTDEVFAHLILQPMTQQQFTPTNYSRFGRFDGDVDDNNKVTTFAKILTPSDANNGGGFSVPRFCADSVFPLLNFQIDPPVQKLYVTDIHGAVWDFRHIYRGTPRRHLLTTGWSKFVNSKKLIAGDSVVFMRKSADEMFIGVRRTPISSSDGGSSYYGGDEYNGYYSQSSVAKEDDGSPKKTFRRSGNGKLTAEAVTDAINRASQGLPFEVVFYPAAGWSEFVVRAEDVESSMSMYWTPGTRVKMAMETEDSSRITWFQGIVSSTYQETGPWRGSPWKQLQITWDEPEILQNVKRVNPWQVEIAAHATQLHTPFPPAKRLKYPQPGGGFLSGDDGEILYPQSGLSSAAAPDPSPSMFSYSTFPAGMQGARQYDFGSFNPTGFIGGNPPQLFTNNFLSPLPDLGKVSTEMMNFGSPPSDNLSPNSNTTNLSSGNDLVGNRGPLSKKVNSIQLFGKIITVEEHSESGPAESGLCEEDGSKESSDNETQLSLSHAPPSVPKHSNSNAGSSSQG
# Sequence of UniProt Q9C5X0 (whole entry, looked up): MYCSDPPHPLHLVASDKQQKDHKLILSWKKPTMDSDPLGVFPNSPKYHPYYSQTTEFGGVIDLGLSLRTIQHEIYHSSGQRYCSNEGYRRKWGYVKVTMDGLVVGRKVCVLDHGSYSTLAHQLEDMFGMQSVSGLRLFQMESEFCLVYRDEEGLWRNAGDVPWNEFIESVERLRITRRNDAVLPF
# Sequence of UniProt Q94JM3 (whole entry, looked up): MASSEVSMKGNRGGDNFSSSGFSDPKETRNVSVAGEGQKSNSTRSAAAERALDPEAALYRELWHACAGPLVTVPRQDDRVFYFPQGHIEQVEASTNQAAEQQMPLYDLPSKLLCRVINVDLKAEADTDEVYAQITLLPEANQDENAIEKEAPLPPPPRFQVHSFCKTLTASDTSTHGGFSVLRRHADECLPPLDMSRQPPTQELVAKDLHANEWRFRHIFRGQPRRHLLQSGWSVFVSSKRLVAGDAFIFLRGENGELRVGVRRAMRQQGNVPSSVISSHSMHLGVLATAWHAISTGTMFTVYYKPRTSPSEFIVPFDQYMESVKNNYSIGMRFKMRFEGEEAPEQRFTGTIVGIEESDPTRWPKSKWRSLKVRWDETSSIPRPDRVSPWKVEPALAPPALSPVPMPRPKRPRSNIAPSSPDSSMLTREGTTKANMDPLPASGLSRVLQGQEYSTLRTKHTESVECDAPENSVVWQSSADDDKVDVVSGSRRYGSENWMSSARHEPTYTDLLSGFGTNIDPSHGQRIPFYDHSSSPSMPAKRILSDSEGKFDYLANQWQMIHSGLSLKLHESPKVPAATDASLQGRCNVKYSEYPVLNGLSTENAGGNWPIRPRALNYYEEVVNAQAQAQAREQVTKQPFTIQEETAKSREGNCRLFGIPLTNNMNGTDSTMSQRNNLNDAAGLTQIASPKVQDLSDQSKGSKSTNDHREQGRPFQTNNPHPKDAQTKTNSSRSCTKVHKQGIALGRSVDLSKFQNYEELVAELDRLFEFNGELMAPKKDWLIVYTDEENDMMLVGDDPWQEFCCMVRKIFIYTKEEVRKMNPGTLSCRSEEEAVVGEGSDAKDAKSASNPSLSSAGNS
# Sequence of UniProt Q9ZTX9 (whole entry, looked up): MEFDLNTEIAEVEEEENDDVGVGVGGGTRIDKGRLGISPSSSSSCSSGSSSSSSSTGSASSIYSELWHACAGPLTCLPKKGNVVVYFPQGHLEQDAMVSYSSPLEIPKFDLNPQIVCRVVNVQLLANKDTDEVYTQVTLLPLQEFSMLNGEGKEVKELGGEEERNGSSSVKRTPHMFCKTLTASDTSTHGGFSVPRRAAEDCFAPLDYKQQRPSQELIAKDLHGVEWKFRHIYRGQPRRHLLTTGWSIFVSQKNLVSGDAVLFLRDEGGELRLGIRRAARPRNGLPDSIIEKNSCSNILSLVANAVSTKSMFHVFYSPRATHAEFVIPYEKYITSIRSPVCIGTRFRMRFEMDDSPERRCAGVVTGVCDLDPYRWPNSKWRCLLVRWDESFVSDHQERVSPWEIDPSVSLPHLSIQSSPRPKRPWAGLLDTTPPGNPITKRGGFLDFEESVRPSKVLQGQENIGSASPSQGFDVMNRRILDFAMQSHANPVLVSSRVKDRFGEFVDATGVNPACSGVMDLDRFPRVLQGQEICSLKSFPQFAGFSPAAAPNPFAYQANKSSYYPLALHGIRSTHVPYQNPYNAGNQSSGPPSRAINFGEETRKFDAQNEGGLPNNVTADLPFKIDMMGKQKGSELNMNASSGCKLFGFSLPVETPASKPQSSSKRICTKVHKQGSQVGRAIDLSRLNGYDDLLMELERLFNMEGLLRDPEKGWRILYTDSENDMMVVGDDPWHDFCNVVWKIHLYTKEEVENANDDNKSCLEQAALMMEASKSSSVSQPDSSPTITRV

# Sample 1
# Target: ABI1, truncated, D143A, DHFR fusion (Arabidopsis thaliana)
# Method: DHFR PCA, deep sequencing
# Sample: yeast
# Notes: methotrexate growth selection, single substitutions
# Added: (+)-ABA 2500 µM
# Reference: wild-type fitted maximum
# Direction: higher = stronger binding
# Starting sequence: PYL1, truncated, DHFR fusion (Arabidopsis thaliana); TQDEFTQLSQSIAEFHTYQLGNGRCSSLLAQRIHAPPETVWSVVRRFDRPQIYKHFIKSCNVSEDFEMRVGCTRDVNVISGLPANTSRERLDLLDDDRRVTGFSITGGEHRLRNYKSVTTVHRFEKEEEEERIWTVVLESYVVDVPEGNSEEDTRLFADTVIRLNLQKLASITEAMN; partner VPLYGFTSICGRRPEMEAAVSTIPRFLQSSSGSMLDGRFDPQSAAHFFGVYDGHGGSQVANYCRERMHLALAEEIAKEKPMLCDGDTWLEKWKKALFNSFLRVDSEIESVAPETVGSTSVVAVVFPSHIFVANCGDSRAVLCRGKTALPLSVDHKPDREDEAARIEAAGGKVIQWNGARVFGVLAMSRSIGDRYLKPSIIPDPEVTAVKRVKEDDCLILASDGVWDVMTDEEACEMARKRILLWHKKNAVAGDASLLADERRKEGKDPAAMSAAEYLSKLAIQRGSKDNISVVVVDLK
Change,relative binding score [%]
R74F,3.98
E4N,94.6
A175K,95.4
E4L,99.8
T1I,96.1
P36R,98.2
D153L,27.2
N85W,93.3
R99K,108
R88K,98.7

# Sample 2
# Target: CCND3, cyclin fold, Cln2 fusion (human)
# Method: yeast growth competition, sequencing
# Sample: yeast
# Notes: weak parent motif
# Reference: not given
# Direction: higher = stronger binding
# Starting sequence: ORC1 docking peptide (human); PRARKRLELGNLG; partner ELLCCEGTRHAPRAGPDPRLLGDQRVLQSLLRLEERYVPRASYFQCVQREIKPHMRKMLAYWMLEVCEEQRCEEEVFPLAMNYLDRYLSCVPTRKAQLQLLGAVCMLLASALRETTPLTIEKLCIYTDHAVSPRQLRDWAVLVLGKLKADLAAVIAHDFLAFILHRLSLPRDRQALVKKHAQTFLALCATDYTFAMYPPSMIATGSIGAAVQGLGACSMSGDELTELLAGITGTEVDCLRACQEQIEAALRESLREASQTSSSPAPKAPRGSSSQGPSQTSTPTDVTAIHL
Change,normalised enrichment score
L7C,0.0862
R2P,0.123
N11G,0.197
G10E,-0.0435
G10W,0.28
N11C,0.196
E8P,0.196
N11A,0.0895
R6P,0.0878
P1F,-0.0357
L9I,0.173
P1C,0.245
L9P,0.0486
P1A,0.187
A3M,0.298

# Sample 3
# Sequence: B1 (IAA20)
# Method: two-hybrid
# Notes: weak activation fusion
# Direction: higher = firmer interaction
# B1: IAA20 (Arabidopsis thaliana, UniProt O24410); chain MGRGRSSSSSSIESSSKSNPFGASSSTRNLSTDLRLGLSFGTSSGTQYFNGGYGYSVAAPAVEDAEYVAAVEEEEENECNSVGSFYVKVNMEGVPIGRKIDLMSLNGYRDLIRTLDFMFNASILWAEEEDMCNEKSHVLTYADKEGDWMMVGDVPWEMFLSTVRRLKISRANYHY
partner,reference,positive tests
"ARF17 (Arabidopsis thaliana, UniProt Q84WU6)",out of 2 tests,0
"IAA26 (Arabidopsis thaliana, UniProt Q8LAL2)",out of 2 tests,1
"ARF4 660-788 (Arabidopsis thaliana, UniProt Q9ZTX9)",out of 2 tests,0
"IAA34 (Arabidopsis thaliana, UniProt Q9C5X0)",out of 4 tests,2
"ARF9 519-638 (Arabidopsis thaliana, UniProt Q9XED8)",out of 4 tests,1
"ARF2 727-859 (Arabidopsis thaliana, UniProt Q94JM3)",out of 4 tests,0

# Single results of other studies
Molecule,target,assay,test system,setting,how to read,endpoint,result
"PhoQ, residues 284 288 289 292 302 303 SSCCRF","PhoP, residues 12 14 15 18 19 HEGLL (Escherichia coli, UniProt P23836)","Sort-seq, refers to: YFP reporter",E. coli,"PhoQ-PhoP variant library, added: 10 µM Mg2+","reference: high Mg2+ state, higher = stronger signaling",fold induction,18.3
